Measurements from different studies.
Numbered parts are unrelated; each lists some results of a single study.

Block 1 — method: protein binding microarray; form: double-stranded DNA, one strand shown; matrix: in vitro; concentration: not given; relative to: not given; reading: higher = stronger binding
Target: Histone acetyltransferase KAT6A, winged helix 2, GST fusion (KAT6A, Homo sapiens, UniProt Q92794, residues 85-181)
Setting: 8-mer, flanks averaged, mean of 2 arrays, mostly near background
Residues (chain): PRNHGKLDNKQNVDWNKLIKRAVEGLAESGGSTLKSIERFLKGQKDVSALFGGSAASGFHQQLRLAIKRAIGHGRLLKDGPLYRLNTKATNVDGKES
`GGACCAAA` has an E-score of 0.124.
The E-score of `CCGCCTAC` is reported as 0.155.
For `GACGGTAA`, the E-score was -0.212.
For `GGTCCTGA`, the E-score was 0.102.
`CTCGCCGA` has an E-score of 0.056.
The E-score of `ACACACGC` is reported as -0.0663.
`AACGTAAC` has an E-score of -0.214.
For `GGCCTGAA`, the E-score was 0.035.
`AGTGGCAA` has an E-score of 0.0732.
With `ATCGTGAA` the E-score was -0.133.
`ACCGCTAC` gave an E-score of -0.0217.
`GCTCTGGA` gave an E-score of 0.149.
The E-score of `AGCATCTC` is reported as -0.0898.
The E-score of `CACCACTA` is reported as -0.0858.
For `GGCGTATA`, the E-score was 0.0499.
`GACTATTA` gave an E-score of -0.0507.
With `ACGAAGGC` the E-score was 0.102.
The E-score of `AGATATTC` is reported as -0.0579.
With `AATTGCAA` the E-score was -0.0049.
`ATCATGAG` gave an E-score of -0.0547.
`GTGGAAAC` has an E-score of -0.0356.
For `ACGGATGA`, the E-score was -0.0288.
For `CTAAATGA`, the E-score was 0.0102.
The E-score of `GCTCTTTA` is reported as 0.109.
The E-score of `TAGCCGCA` is reported as 0.206.

Block 2 — method: aptamer microarray, sandwich; form: DNA with 2'F-ANA; matrix: in vitro; concentration: 200 nM; with: Cy3 exosite-II aptamer, 400 nM; reading: higher = stronger binding; oligonucleotide: GGTTGGTGTGGTTGG
Target: Prothrombin, mature alpha-thrombin (F2, Homo sapiens, UniProt P00734)
Setting: whole 15-mer aptamer, many near background
`2'F-ANA at 1 2 3 4 6 8 9 14`: “mean fluorescence intensity” 238 a.u.
For `2'F-ANA at 1 2 4 9 11`, “mean fluorescence intensity” read 221 a.u.
`2'F-ANA at 2 4 7 10 11 12 13`: “mean fluorescence intensity” 98.5 a.u.
`2'F-ANA at 1 2 5 7 10 13 15`: “mean fluorescence intensity” 46.3 a.u.
`2'F-ANA at 1 5 6 9 12 13 14`: “mean fluorescence intensity” 53.7 a.u.
For `2'F-ANA at 1 4 5 6 7 8 11 12 15`, “mean fluorescence intensity” read 81.4 a.u.
For `2'F-ANA at 2 5 7 8 10`, “mean fluorescence intensity” read 47.4 a.u.
Under “mean fluorescence intensity”, `2'F-ANA at 1 2 4 6 7 9 11 15` is recorded as 84.6 a.u.
`2'F-ANA at 2 3 4 5 8 10 13 14` — result for “mean fluorescence intensity”: 48.1 a.u.
`2'F-ANA at 2 3 4 7 10 13 15` — result for “mean fluorescence intensity”: 220 a.u.
`2'F-ANA at 1 2 3 4 9 10 11 15` — result for “mean fluorescence intensity”: 59.6 a.u.
`2'F-ANA at 1 3 4 5 6 7 12 13 15` — result for “mean fluorescence intensity”: 78.7 a.u.
Under “mean fluorescence intensity”, `2'F-ANA at 1 2 3 4 7 8 10 11 12 14` is recorded as 68.7 a.u.
For `2'F-ANA at 1 6 7 8 9 11 13 14 15`, “mean fluorescence intensity” read 62 a.u.
`2'F-ANA at 3 4 5 6 9 10 12 13 14`: “mean fluorescence intensity” 99.5 a.u.
Under “mean fluorescence intensity”, `2'F-ANA at 3 4 6 7 12 14 15` is recorded as 292 a.u.
`2'F-ANA at 1 2 3 4 7 10 12 15` — result for “mean fluorescence intensity”: 77.9 a.u.

Block 3 — method: protein-binding microarray; form: hairpin DNA; matrix: in vitro; concentration: not given; relative to: not given; reading: higher = stronger binding
Target: Hepatocyte nuclear factor 3-beta, forkhead domain (FOXA2, Homo sapiens, UniProt Q9Y261, residues 142-269)
Setting: whole hairpin DNA, median over replicate spots
Construct (chain): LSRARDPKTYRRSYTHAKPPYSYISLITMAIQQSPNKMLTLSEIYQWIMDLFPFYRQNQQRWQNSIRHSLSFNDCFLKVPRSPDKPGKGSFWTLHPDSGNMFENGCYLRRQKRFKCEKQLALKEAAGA
The median fluorescence of `GAGGCCATGTACGCAACGCCTCCTGGCGTTGCGTACATGGCCTCACACTC` is reported as 3430 a.u.
`GAGGCCATGCGAACAACGCCTCCTGGCGTTGTTCGCATGGCCTCACACTC (5mC at 34)` has a median fluorescence of 3330 a.u.
The median fluorescence of `GAGGCCTTGCAAACAACGCCTCCTGGCGTTGTTTGCAAGGCCTCACACTC` is reported as 3150 a.u.
`GAGGCCATCCAAACAACGCCTCCTGGCGTTGTTTGGATGGCCTCACACTC (5mC at 9)` has a median fluorescence of 3070 a.u.
`GAGGCCATGTAACAAACGCCTCCTGGCGTTTGTTACATGGCCTCACACTC` has a median fluorescence of 3270 a.u.
With `GAGGCCATGTAAACAGCGCCTCCTGGCGCTGTTTACATGGCCTCACACTC (5mC at 29)` the median fluorescence was 4310 a.u.
`GAGGCCCGGTAAACAACGCCTCCTGGCGTTGTTTACCGGGCCTCACACTC (5mC at 37)` gave a median fluorescence of 3810 a.u.
`GAGGCCATGCAAGCAACGCCTCCTGGCGTTGCTTGCATGGCCTCACACTC (5mC at 32)` has a median fluorescence of 4160 a.u.
`GAGGCCATGTAAACTACGCCTCCTGGCGTAGTTTACATGGCCTCACACTC` gave a median fluorescence of 3080 a.u.

Block 4 — method: competition protein-binding microarray; form: double-stranded DNA, one strand shown; matrix: in vitro; concentration: 2 µM; with: Pho4 competitor, 0.05 µM; reading: higher = stronger binding
Target: Centromere-binding protein 1, full length, His-tagged (CBF1, Saccharomyces cerevisiae, UniProt P17106, residues 1-351)
Sequence of UniProt P17106 (whole entry, looked up): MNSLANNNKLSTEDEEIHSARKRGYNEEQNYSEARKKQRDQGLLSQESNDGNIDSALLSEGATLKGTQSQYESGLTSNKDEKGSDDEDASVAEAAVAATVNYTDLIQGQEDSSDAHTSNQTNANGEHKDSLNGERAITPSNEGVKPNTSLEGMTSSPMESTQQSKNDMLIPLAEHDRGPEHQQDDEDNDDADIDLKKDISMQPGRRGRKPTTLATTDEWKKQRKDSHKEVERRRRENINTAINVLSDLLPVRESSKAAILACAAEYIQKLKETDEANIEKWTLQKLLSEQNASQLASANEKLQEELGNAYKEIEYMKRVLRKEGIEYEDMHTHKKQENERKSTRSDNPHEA
Setting: whole 60-bp probe, lowest competitor level
`CATACCCAACCTTGGTAGGTGGGTGAAGATATTTGTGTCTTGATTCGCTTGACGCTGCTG` has a fluorescence intensity of 57.6 a.u.
`ACCTGAAATGATTGACCTGTACAGAGGGTTACCTATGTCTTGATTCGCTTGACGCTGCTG` gave a fluorescence intensity of 65 a.u.
`CTTCTGTAAATTTGCACGGTGGGTGGACGCGCCCCGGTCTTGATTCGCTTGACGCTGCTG` gave a fluorescence intensity of 77.4 a.u.
`ACCGTCGAGCCTCACATCGTGGTCGGGAGAGACTCTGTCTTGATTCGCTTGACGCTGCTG` has a fluorescence intensity of 54.6 a.u.
For `CGATTCACTGTCCATCACGGGTCCGCCTGGCACTGGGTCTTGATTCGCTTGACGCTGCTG`, the fluorescence intensity was 128 a.u.
The fluorescence intensity of `GAAGCGTATAAAACACACGTGGATTGGGGGTGCTTTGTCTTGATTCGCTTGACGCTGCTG` is reported as 794 a.u.
The fluorescence intensity of `AATGATCTTGTTTCTCATGTGGGTTCTGACTGGAGCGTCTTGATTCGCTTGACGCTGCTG` is reported as 79.9 a.u.
`AAATTACTAAGTTGAAGGGTGGGTGACGCCGTATGAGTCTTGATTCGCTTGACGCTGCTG` gave a fluorescence intensity of 71.1 a.u.
With `CGTCCTAGTGATTGTGCGGTGGGTGCCATGAGGAAGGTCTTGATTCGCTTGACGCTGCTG` the fluorescence intensity was 90.2 a.u.
`CTAACGAAGGTTTTTCACGTGGGCTACAAGCCAAGTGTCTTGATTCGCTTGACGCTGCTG` has a fluorescence intensity of 838 a.u.

Block 5 — method: protein-binding microarray; form: double-stranded DNA, one strand shown; matrix: in vitro; concentration: 940 nM top; setting: 60-bp whole probe; with: salmon DNA 0.4 mg/ml; relative to: random background probes; reading: higher = stronger binding; all sequences stand within: GCCTAGCAC … GTCTTGATTCGCTTGACGCTGCTG
Target: Interferon regulatory factor 5, full length, phosphomimetic (IRF5, Homo sapiens, UniProt Q13568-2, residues 1-514, S451D/S453D/S456D/S462D)
`TTAGATATCTGTCTCGATTAGTGCTAG` — result for “fitted relative affinity”: 1.72 z-score.
For `TCAAGGCTGTGTTTTCACACTGTGCTA`, “fitted relative affinity” read -0.596 z-score.
`TCAGTTACGGAATTTCCCACTGTGCTA`: “fitted relative affinity” 0.42 z-score.
`GTGTTTTCATTTTATGACAGCGTGCTA`: “fitted relative affinity” 1.3 z-score.
Under “fitted relative affinity”, `TTAGGTTTCGGACTGGGTAAGTGCTAG` is recorded as 7.96 z-score.
Under “fitted relative affinity”, `GACGGTTTCGGTTTCGGGTCGTGCTAG` is recorded as 16.9 z-score.
Under “fitted relative affinity”, `GACGGTATCGGTTTCCGGACGTGCTAG` is recorded as 10.2 z-score.
For `TCAGAACTGGGGACTGGATTAGTGCTA`, “fitted relative affinity” read -0.288 z-score.
Under “fitted relative affinity”, `TTAGACCTGGGGACTGGATTAGTGCTA` is recorded as 0.0481 z-score.
`GCAGGGTATAGGCATTCCCTGTGCTAG`: “fitted relative affinity” -0.623 z-score.
`AACGGTTTCCTTCTCCTGACGTGCTAG` — result for “fitted relative affinity”: 1.89 z-score.
For `TCAGGTTCCCTTTTCCTTTAGTGCTAG`, “fitted relative affinity” read 0.863 z-score.
`TCACTTCCCCATCTTGTACTGTGCTAG` — result for “fitted relative affinity”: 1.65 z-score.

A few entries again (block 2):
For `2'F-ANA at 1 6 7 8 9 11 13 14 15`, “mean fluorescence intensity” read 62 a.u.
`2'F-ANA at 1 2 5 7 10 13 15`: “mean fluorescence intensity” 46.3 a.u.
`2'F-ANA at 1 2 3 4 9 10 11 15` — result for “mean fluorescence intensity”: 59.6 a.u.
`2'F-ANA at 1 2 3 4 6 8 9 14`: “mean fluorescence intensity” 238 a.u.
`2'F-ANA at 1 3 4 5 6 7 12 13 15` — result for “mean fluorescence intensity”: 78.7 a.u.
Under “mean fluorescence intensity”, `2'F-ANA at 1 2 4 6 7 9 11 15` is recorded as 84.6 a.u.
Under “mean fluorescence intensity”, `2'F-ANA at 3 4 6 7 12 14 15` is recorded as 292 a.u.
For `2'F-ANA at 1 4 5 6 7 8 11 12 15`, “mean fluorescence intensity” read 81.4 a.u.
`2'F-ANA at 1 2 3 4 7 10 12 15` — result for “mean fluorescence intensity”: 77.9 a.u.
`2'F-ANA at 2 4 7 10 11 12 13`: “mean fluorescence intensity” 98.5 a.u.
`2'F-ANA at 2 3 4 7 10 13 15` — result for “mean fluorescence intensity”: 220 a.u.
